Experimental data pooled from the literature.
Positions count from the first letter of the parent shown. Numbers after ± are the reported error.
Ovol1: Ovol1 (Mus musculus, UniProt Q9WTJ2)
UniProt Q9WTJ2, sequence (whole entry, looked up): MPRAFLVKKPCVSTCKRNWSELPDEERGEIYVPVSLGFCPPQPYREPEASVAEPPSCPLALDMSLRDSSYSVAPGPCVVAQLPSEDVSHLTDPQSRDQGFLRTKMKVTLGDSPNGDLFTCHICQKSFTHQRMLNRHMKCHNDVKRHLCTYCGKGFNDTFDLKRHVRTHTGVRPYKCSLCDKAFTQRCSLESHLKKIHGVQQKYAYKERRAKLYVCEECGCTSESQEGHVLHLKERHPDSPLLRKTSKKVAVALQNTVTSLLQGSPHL
TFAM 43-221 del222-246: TFAM 43-221 del222-246 (Homo sapiens, UniProt Q00059)
UniProt Q00059, sequence (whole entry, unmodified, looked up): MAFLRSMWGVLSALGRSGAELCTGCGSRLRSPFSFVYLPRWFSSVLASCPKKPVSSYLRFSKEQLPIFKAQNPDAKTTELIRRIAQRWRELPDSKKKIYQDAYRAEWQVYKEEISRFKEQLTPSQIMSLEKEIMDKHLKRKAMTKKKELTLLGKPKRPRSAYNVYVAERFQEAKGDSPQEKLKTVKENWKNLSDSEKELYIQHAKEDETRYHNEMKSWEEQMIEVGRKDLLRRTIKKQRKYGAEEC
RIGI: RIGI 2-925 (Homo sapiens, UniProt O95786)
UniProt O95786, sequence (whole entry, looked up): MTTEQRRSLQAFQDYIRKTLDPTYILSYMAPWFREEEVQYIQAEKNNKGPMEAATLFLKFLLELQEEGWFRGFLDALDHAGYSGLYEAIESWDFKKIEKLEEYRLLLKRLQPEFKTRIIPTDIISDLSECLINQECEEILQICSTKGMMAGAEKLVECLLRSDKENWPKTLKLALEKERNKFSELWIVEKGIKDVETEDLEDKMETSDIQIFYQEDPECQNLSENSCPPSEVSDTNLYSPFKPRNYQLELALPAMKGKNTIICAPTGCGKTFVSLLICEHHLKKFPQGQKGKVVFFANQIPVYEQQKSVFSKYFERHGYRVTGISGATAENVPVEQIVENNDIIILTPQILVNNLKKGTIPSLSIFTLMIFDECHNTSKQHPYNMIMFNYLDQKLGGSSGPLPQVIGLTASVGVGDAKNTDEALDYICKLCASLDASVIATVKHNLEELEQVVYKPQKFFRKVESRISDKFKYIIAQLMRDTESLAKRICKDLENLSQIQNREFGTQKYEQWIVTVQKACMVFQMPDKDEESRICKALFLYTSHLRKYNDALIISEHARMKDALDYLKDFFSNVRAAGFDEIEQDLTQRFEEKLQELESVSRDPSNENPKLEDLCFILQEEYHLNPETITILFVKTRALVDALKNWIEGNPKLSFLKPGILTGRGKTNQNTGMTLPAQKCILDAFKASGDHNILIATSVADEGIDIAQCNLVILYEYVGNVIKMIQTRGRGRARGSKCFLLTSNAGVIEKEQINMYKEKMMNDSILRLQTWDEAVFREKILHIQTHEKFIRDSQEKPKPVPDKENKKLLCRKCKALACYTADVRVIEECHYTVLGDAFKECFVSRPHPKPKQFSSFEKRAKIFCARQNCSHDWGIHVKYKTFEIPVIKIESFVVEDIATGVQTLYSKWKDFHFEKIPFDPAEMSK
TFAM: TFAM 43-246 (Homo sapiens, UniProt Q00059)
Heat shock factor protein HSF8: Heat shock factor protein HSF8 (Solanum lycopersicum, UniProt Q40152)
UniProt Q40152, sequence (whole entry, looked up): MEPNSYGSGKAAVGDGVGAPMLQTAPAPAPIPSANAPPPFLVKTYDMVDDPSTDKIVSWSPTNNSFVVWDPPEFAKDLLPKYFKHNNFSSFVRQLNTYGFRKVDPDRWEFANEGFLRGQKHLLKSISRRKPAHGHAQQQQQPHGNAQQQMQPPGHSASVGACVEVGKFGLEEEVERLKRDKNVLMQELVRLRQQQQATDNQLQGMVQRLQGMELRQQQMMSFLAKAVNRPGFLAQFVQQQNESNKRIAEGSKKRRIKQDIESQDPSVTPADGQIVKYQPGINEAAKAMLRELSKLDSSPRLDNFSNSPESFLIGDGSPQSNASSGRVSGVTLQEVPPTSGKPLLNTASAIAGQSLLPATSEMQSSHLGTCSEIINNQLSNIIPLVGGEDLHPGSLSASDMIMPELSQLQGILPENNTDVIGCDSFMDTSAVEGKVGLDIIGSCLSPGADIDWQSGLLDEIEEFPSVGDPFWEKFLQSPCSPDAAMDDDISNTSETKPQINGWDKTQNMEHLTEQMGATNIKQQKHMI
T1: NAB3/NRD1 NAB3 191-565; NRD1 1-548 (Saccharomyces cerevisiae); chain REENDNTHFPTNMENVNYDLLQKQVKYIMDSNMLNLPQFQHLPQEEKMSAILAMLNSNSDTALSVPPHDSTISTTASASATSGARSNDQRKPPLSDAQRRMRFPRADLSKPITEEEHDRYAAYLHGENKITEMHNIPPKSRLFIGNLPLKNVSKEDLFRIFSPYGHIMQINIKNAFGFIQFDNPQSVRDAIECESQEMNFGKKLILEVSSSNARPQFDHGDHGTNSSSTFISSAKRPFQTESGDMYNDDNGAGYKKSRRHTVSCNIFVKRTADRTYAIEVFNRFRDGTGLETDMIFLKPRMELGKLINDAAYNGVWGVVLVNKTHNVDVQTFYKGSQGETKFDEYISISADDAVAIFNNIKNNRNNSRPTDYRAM; chain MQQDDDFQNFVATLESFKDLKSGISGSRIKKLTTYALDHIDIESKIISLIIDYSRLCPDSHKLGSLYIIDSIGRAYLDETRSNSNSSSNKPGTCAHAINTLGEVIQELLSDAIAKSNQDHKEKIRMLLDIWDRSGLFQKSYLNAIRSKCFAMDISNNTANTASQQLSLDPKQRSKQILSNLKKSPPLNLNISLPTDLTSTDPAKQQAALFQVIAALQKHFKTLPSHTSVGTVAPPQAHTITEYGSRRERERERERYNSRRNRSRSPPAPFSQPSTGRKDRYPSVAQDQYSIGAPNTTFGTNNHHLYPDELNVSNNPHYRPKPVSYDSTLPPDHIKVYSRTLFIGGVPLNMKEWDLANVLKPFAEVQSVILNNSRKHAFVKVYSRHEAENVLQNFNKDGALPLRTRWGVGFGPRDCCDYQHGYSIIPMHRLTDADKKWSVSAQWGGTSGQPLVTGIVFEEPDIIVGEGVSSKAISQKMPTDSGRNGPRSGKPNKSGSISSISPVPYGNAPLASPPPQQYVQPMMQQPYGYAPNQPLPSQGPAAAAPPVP
P1: METTL9 full-length, 1-318 (Homo sapiens); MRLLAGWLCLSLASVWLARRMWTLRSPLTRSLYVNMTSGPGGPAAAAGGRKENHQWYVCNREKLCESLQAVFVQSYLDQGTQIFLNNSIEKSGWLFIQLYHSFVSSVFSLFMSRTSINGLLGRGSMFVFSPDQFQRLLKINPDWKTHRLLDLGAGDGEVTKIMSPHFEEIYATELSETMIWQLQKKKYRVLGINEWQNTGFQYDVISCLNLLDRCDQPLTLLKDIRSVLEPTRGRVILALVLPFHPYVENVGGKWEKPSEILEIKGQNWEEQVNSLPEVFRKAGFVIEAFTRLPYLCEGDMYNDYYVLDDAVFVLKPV
B1: SULT1A3 (Homo sapiens, UniProt P0DMM9); chain MELIQDTSRPPLEYVKGVPLIKYFAEALGPLQSFQARPDDLLINTYPKSGTTWVSQILDMIYQGGDLEKCNRAPIYVRVPFLEVNDPGEPSGLETLKDTPPPRLIKSHLPLALLPQTLLDQKVKVVYVARNPKDVAVSYYHFHRMEKAHPEPGTWDSFLEKFMAGEVSYGSWYQHVQEWWELSRTHPVLYLFYEDMKENPKREIQKILEFVGRSLPEETMDFMVQHTSFKEMKKNPMTNYTTVPQELMDHSISPFMRKGMAGDWKTTFTVAQNERFDADYAEKMAGCSLSFRSEL
UniProt P35222, sequence (whole entry, looked up): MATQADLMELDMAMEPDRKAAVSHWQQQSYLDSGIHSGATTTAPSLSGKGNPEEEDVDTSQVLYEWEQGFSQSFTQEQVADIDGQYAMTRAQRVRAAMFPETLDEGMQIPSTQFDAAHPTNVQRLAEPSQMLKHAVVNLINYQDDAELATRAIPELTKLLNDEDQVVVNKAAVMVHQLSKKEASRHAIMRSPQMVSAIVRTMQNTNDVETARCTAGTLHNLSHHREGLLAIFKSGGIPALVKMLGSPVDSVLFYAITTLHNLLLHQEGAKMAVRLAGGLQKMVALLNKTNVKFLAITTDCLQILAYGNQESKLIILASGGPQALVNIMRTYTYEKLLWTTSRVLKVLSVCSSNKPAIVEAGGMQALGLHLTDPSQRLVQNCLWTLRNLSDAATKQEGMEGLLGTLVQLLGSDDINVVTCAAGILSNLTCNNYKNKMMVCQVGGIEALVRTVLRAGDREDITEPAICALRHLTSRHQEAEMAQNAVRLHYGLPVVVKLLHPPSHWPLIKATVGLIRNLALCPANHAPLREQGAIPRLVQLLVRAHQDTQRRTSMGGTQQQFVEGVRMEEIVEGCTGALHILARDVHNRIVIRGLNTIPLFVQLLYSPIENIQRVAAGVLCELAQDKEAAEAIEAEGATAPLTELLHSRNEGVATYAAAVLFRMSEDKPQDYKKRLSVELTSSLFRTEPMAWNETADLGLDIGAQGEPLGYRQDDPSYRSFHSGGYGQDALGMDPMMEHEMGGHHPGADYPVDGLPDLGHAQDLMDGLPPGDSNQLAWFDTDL
UniProt Q57977, sequence (whole entry, looked up): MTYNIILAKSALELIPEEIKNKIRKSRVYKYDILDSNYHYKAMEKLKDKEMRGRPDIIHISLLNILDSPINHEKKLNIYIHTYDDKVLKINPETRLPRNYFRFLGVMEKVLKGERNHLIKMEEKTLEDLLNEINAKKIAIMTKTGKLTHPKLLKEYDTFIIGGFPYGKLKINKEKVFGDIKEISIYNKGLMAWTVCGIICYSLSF
UniProt Q9ES57, sequence (whole entry, looked up): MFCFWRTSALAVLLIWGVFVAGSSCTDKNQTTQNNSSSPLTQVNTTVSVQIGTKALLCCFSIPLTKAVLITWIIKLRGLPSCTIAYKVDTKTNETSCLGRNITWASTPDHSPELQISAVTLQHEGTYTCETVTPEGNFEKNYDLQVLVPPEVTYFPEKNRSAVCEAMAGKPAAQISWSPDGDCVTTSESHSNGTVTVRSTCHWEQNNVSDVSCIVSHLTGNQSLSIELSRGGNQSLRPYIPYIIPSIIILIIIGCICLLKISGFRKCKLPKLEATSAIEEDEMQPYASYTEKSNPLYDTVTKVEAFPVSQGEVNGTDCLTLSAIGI

UUCAAC (ssRNA)
Kd (nep1 1-205 (Methanocaldococcus jannaschii, UniProt Q57977); fluorescence quenching; RNA): 12300 ± 1900 nM

AAATAGGTGGGTTGTCATTTCCCAACGCAT (dsDNA)
binding (Ovol1; EMSA; double-stranded DNA, one strand shown): no binding

ACACCGCTGCTAACCCCATACCCCG (dsDNA; 25 bp duplex)
Kd (TFAM 43-221 del222-246; FRET; double-stranded DNA, one strand shown; apparent, cooperative Hill model): 7.9 ± 0.8 nM

P1 M126A
Kd (SLC39A7 residues 66-74; ITC; together with: SAH 2 mM): 616000 nM

GGACGUACGUUUCGACGUACGUCC (structured RNA; 5'-triphosphate, hairpin, 10 bp)
Kd (RIGI; MST; folded RNA; together with: ADP-AlFx): 3.5 ± 2.4 nM

AGCAGGAGCAGGAACAGGATGAACA (dsDNA; 25 bp duplex)
Kd (TFAM; FRET; double-stranded DNA, one strand shown; apparent, cooperative Hill model): 7.4 ± 0.6 nM

CTGCCTTCATCAAAGCTTTGAACACAGCGC (dsDNA)
binding (Ovol1; EMSA; double-stranded DNA, one strand shown): no binding

GACGATAGCGGTGACGGCACAGACGGACGTGACATGCTTGACCAACTCGCCGTATGCCGCTTCCGTCCGTCGCTC (ssDNA)
Kd (Cd200r1 26-238 (Mus musculus, UniProt Q9ES57); nitrocellulose filter binding; single-stranded DNA; together with: Mg2+ 1 mM): 390 ± 86 nM

TAACAGTCACCCCCCAACTAAC (dsDNA)
Kd (TFAM; EMSA; double-stranded DNA, one strand shown; apparent): 9.2 ± 0.98 nM

CTATTAAGCTTGACAAGAAG (dsDNA)
binding (Heat shock factor protein HSF8; EMSA; double-stranded DNA, one strand shown): no binding

RNA 1 GCAUGCGACCUCUGUUUGA / RNA 2 UCAAACAGAGGUCGCAUGC (dsRNA; 5'-OH, duplex, 19 bp)
Kd (RIGI; MST; double-stranded RNA; no nucleotide): 210 ± 76 nM

GGGACGCGUGGUACCAGGCCGAUCUAUGGACGCUAUAGGCACACCGGAUACUUUAACGAUUGGCUAAGCUUCCGCGGGGAUC (structured RNA; stem-loops, bulges, tri-bridged)
Kd (CTNNB1 1-781 (Homo sapiens, UniProt P35222); SPR; folded RNA): 25.6 nM

CCCCGUAGAAAAUCUUAGUAAUCCUUCUUACAUUG (ssRNA)
Kd (T1, NAB3/NRD1 NAB3 191-565; NRD1 1-548 (Saccharomyces cerevisiae); fluorescence anisotropy; RNA): 2.4 ± 0.3 nM

GTGTTAGTTGGGGGGTGACTGTTAA (dsDNA; 25 bp duplex)
Kd (TFAM 43-221 del222-246; FRET; double-stranded DNA, one strand shown; apparent, cooperative Hill model): 9.8 ± 0.8 nM

GGACGUACGUUUCGACGUACGUCC (structured RNA; 5'-OH, hairpin, 10 bp)
Kd (RIGI; MST; folded RNA; no nucleotide): 5.5 ± 2.4 nM

TGATATAATCTTGATCATGTTTGTTACACTTGTCA (dsDNA)
binding (Heat shock factor protein HSF8; EMSA; double-stranded DNA, one strand shown): no binding

B1 (SULT1A3)
Vmax/Km (O=C(O[C@@H]1Cc2c(O)cc(O)cc2O[C@@H]1c1cc(O)c(O)c(O)c1)c1cc(O)c(O)c(O)c1; steady-state kinetics; pH 7.4, not purified): 17000 µL/min/mg

CACACACACACA (ssDNA)
Kd (Tardbp 101-265 (Mus musculus, UniProt Q921F2); filter binding; single-stranded DNA): 382 nM

Excerpt of the above:
CCCCGUAGAAAAUCUUAGUAAUCCUUCUUACAUUG (ssRNA)
Kd (T1, NAB3/NRD1 NAB3 191-565; NRD1 1-548 (Saccharomyces cerevisiae); fluorescence anisotropy; RNA): 2.4 ± 0.3 nM

GTGTTAGTTGGGGGGTGACTGTTAA (dsDNA; 25 bp duplex)
Kd (TFAM 43-221 del222-246; FRET; double-stranded DNA, one strand shown; apparent, cooperative Hill model): 9.8 ± 0.8 nM
